Measured values collected from several papers.
Each numbered part is a random draw from the data of one study; scales do not carry over between parts.

Set 1
Target: RNA binding protein fox-1 homolog 2, RRM domain, GST-SBP tag (RBFOX2, Homo sapiens, UniProt O43251-10, residues 100-194)
Method: RNA Bind-n-Seq
Form: RNA
Matrix: in vitro
Concentration: 365 nM
Notes: natural RNA segment, single round, ends assumed
Baseline: no-protein control
Direction: higher = stronger binding
All sequences stand within: GGGAGUUCUACAGUCCGACGAUC … UGGAAUUCUCGGGUGCCAA
Residues (chain): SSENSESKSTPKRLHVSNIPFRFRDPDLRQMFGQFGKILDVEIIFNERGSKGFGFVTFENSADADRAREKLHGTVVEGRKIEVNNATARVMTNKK
Strand	RBNS enrichment (R)
UCAAGGGCAGCCAGCAGGCCUGGAUGGAGGCCUAGAAAGCCCUUGCCUUCCUUCCUCCCACUUCUUUCUCCAGGCCUGGUUAACUCUUCCGUUGUCAGCUUCUCCCCCUU	0.785
UGUCAUUAAUUAUCAAUACUAACGAGUAUGUCAUUUUAAAACUUAGUAUUCUCUUUAAUGUUACAAGUUUUCUCCAUCCUGUUAAAUAAUAUUUAUAAUUAUUUUAACAG	0.885
GUCCUGCAUUUCCAUCAGGGUUUCCACAGUCAUCAGGGCUUCUCUCUUGAGUUGCUGAUAGGAGAUGUGAGUUAUGCCCAGAGAUGUCUUAUCGUGAGGAAAAAGAAACU	0.32
CCUGCCCAUGCUGGGAGCCCACGCUCACCCCCUCACCCCUCCAAGCUCACUCCCCAACCCCCAACUCCGUGUGGUAAGCAACAUGGCUUUGAUGAUAAACGACUUUACUC	0.484
UCUAAGCCUACAAGUACUACUUGCUAUAGCUCAGACUUGUCUACAGUUCUUUGUAUGAUGCACUUUGGACCCACCCUCUCCUCAUGUCACUACUUUGCACACUUCCUCCA	0.551
GCAUUUUAUUCACCUGCAAGAUCACAUCCCUAGCUUUGAUUUUGCUUAAAUGAUAGGGACUUAAGAGUGCUGAUUGAAGAAAGAUCCUAUUCUUAGGUCUAACUCGAUUU	0.552
CUCAUUUUUCCCACAGUGGAGAUUUGGAAGAUGUCCCAAUUUAAUGUAGGUGUUUUCAUCUGUCAUGAAGGGACAGAUGAGAUCCUACUACUUGCGAAGUUUCUAUGCAU	0.569
GAAGGCAGCUUCCUAUAUGCAGCGUGUGCUUUCUUAUUCUUAUUUUUAAUAUAUGACAGUUAUUUGAGAAGCCAUUUCUACUUUGAAGUCAUUAUCGAUGAAAGUGAUGU	0.459

Set 2
Target: Centromere-binding protein 1, full length, His-tagged (CBF1, Saccharomyces cerevisiae, UniProt P17106, residues 1-351)
Sequence of UniProt P17106 (whole entry, looked up): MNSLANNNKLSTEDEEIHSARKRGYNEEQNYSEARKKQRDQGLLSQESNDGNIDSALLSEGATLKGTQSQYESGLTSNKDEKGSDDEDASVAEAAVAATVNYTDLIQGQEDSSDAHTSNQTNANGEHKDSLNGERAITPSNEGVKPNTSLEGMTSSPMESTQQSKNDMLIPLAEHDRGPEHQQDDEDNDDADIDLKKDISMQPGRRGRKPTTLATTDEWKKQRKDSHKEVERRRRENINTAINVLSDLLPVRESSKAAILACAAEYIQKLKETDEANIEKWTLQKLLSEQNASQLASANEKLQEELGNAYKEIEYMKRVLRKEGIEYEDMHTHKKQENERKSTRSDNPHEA
Method: competition protein-binding microarray
Form: double-stranded DNA, one strand shown
Matrix: in vitro
Concentration: 2 µM
Notes: whole 60-bp probe, lowest competitor level
With: Pho4 competitor, 0.05 µM
Direction: higher = stronger binding
All sequences stand within: … GTCTTGATTCGCTTGACGCTGCTG
Strand	fluorescence intensity [a.u.]
CTAACATCGTCCGCGCAGGTGACGCCTCCCGCGCTG	84
AAAGCGGTAATTTGCCCGGTGGGTGCAGATATCTAT	65.3
TGATTTGCTTCTCACCACGGGTAGTTATCATTGGCT	58
CGTCCTAGTGATTGTGTAGTGGGTGCCATGAGGAAG	96.5
GCCCATTCTGTGGTGAATGTGACGGAGCAGTTTGAG	69.3
CTTTCCCGATCTTTTCACGTGAGTTTAGCACATTTG	1250
GGTGTCCTCAAAGAATCTCAAGGTCCTAGCAGCTAA	56.1
GTCTTGTCTCATTGGCGGGTGGGTGTCCCCACTTCA	83.7
GTCGTTAATAGAAGCCATGTGGAAAGATAAAGGGGC	107
CATACCCAACCTTGCCGCGTGGGTGAAGATATTTGT	76.5
TGCGGGCGCGCTTTTCACGTTTTGATTAGCAACAGG	104
CTAGACAAAGCAATTCTCATGACAAATCTACCGATT	70.3
CGATCGTAGCTTGGTGTCGTGATGGGGTTATTTCGG	186
ATTAAGTCTCTTCATCCCGTGTACTATTACCCGACA	122
GTTATAAGTGCTTTTCTCGTGCATCCCTTGGCACTT	81.9
ATGTTCCACAATACAAGCGTGACTCGAGACGTAAGG	266
AAGAACCTGCAAGGGCATGTGCGGTTGTTGGAGCGA	63.1
ATTACTTGTTGCCATCACGATACTGGCATCCGATAG	109
CGCCAATCCAGCATGAGCATGACGCCGGTTCGAGAA	67.6

Set 3
Target: POU domain, class 5, transcription factor 1, POU domain (Pou5f1, Mus musculus, UniProt P20263, residues 131-289)
Sequence of UniProt P20263 (131-289, looked up): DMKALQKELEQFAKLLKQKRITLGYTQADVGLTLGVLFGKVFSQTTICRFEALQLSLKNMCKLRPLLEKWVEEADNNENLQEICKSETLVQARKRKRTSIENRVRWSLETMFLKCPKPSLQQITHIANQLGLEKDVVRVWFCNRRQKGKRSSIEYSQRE
Method: Spec-seq
Form: double-stranded DNA, one strand shown
Matrix: in vitro
Concentration: not given
Notes: whole probe, mean of replicates
Baseline: not given
Direction: lower = stronger binding
All sequences stand within: GAGTCGTCTCGTCAGCAC … CCGTAGAGCACTCAGGTC
Strand	relative binding energy [ln ratio]
ATCGTGAT	0.543
ATCGGTAT	0.593
ATGCAACA	-0.0786
ATCCCCAT	0.398
ATCAGGAT	0.602
AGTTTAAT	0.516
ATGCTCCA	0.623
ATGAAGAT	0.287
AATCTAAT	0.247
TGGCTAAT	0.725
ATGCACGC	0.204
ATAATAAT	-0.467
ATGCTTTC	0.467
ATGCATGT	-0.728
ATGCGCAG	0.384
ATGCGTCG	0.188

Set 4
Target: Interferon regulatory factor 5, full length, phosphomimetic (IRF5, Homo sapiens, UniProt Q13568-2, residues 1-514, K96S/S451D/S453D/S456D/S462D)
Method: protein-binding microarray
Form: double-stranded DNA, one strand shown
Matrix: in vitro
Concentration: 250 nM
Notes: 60-bp whole probe
With: salmon DNA 0.4 mg/ml
Baseline: random background probes
Direction: higher = stronger binding
All sequences stand within: GCCTAGCAC … GTCTTGATTCGCTTGACGCTGCTG
Strand	log fluorescence [z-score]
TTCTACTTCTGTTTTTGCTTGTGCTAG	1.52
TTAGGTATCGGTCACGGTTAGTGCTAG	7.04
TCATTTCCATCTCTCAAACTGTGCTAG	1.63
TTAGATTCCGGGACTGGATTAGTGCTA	0.0186
GACGGTATCGGACTGGAGACGTGCTAG	0.925
TTAGGTCTACTACTGCTTTAGTGCTAG	-0.3
TTAGAACTGGGGTTTAGATTAGTGCTA	-0.188
TCACTTATGATATATATAACTGTGCTA	1.04
GACGGTTTCTGGTATCGGGACGTGCTA	3.19
TTAGGTCTCCTTCTCCTTGAGTGCTAG	-0.353
TCACCTTAGGTTTTCTGACTGTGCTAG	0.25
TTAGGGTCCGGTTTCGGTTAGTGCTAG	8.09
GACGGTTTCGGGTTTCCGGACGTGCTA	7.34
GACGATTCCAGTTTCGAGAGGTGCTAG	5.49
AACGGTTTCGGTTCCGGGACGTGCTAG	9.81
TCCTGTGTCTTAAATAGGGCAGTGCTA	-0.089
GACGGACTGGACTATCGGGAAGTGCTA	0.973
AATATGTTCCCTATATAAGGGTGCTAG	0.306
TCAGATATAGGATAACGAACTGTGCTA	0.421

Repeated from above (set 4):
Strand	log fluorescence [z-score]
GACGGTTTCTGGTATCGGGACGTGCTA	3.19
TCACCTTAGGTTTTCTGACTGTGCTAG	0.25
TTAGAACTGGGGTTTAGATTAGTGCTA	-0.188
AACGGTTTCGGTTCCGGGACGTGCTAG	9.81
TTCTACTTCTGTTTTTGCTTGTGCTAG	1.52
TTAGGTCTCCTTCTCCTTGAGTGCTAG	-0.353
TCCTGTGTCTTAAATAGGGCAGTGCTA	-0.089
GACGATTCCAGTTTCGAGAGGTGCTAG	5.49
AATATGTTCCCTATATAAGGGTGCTAG	0.306
GACGGTTTCGGGTTTCCGGACGTGCTA	7.34
